Assay results collected from several papers.
Each line is one published result; not all experiments were run side by side. ± marks the error that the study gave.

CC#CC(=O)N1CCC[C@H]1c1nc(-c2ccc(C(=O)Nc3ccccn3)cc2)c2c(N)nccn12
apparent peripheral volume (Vp/F) (population pharmacokinetics; patients; oral, dose not given): 110 L

CNC(=O)c1c(C)oc2cc(Oc3ncnc4cc(OC)c(OC)cc34)ccc12
apparent volume of distribution (final population PK model; subject weighing 70 kg; oral, dose not given): 48.5 L

O=C(O)c1cccc(C(=O)O)c1
apparent dissolution enthalpy (betaine/propylene glycol DES-water; DES mass fraction 0.50): 2.42 kcal/mol

Cc1c(C(=O)O)ccc2c3n(nc12)[C@@H]1[C@H](C3)N(CC2CC2)[C@@]2(C(=O)Nc3cc(Cl)ccc32)[C@H]1c1cccc(Cl)c1F
apparent volume Vz/F (cancer patients, plasma; oral, 45 mg day 1 every 3 weeks, geometric mean, cycle 1): 26.7 L

C=CC(=O)NC1CCN(c2ncc3ncnc(Nc4ccc(Oc5ccc6c(c5)ncn6C)c(C)c4)c3n2)CC1
apparent clearance CL/F (healthy male volunteers, plasma; oral, 60 mg, unlabelled tablet): 139 mL/min

CCCCCCCCCCCCCCCC(=O)N[C@@H](CCC(=O)NCCCC[C@H](NC(=O)[C@H](C)NC(=O)[C@H](C)NC(=O)[C@H](CCC(N)=O)NC(=O)CNC(=O)[C@H](CCC(=O)O)NC(=O)[C@H](CC(C)C)NC(=O)[C@H](Cc1ccc(O)cc1)NC(=O)[C@H](CO)NC(=O)[C@H](CO)NC(=O)[C@@H](NC(=O)[C@H](CC(=O)O)NC(=O)[C@H](CO)NC(=O)[C@@H](NC(=O)[C@H](Cc1ccccc1)NC(=O)[C@@H](NC(=O)CNC(=O)[C@H](CCC(=O)O)NC(=O)[C@H](C)NC(=O)[C@@H](N)Cc1cnc[nH]1)[C@@H](C)O)[C@@H](C)O)C(C)C)C(=O)N[C@@H](CCC(=O)O)C(=O)N[C@@H](Cc1ccccc1)C(=O)N[C@H](C(=O)N[C@@H](C)C(=O)N[C@@H](Cc1c[nH]c2ccccc12)C(=O)N[C@@H](CC(C)C)C(=O)N[C@H](C(=O)N[C@@H](CCCNC(=N)N)C(=O)NCC(=O)N[C@@H](CCCNC(=N)N)C(=O)NCC(=O)O)C(C)C)[C@@H](C)CC)C(=O)O
apparent volume of distribution (V/F) (population PK, full model; adult and pediatric type 2 diabetes, plasma; subcutaneous, dose not given): 15.3 L

OC[C@H]1O[C@@H](c2cc(Cc3ccc(C4CC4)cc3)c(Cl)c3c2CCO3)[C@H](O)[C@@H](O)[C@@H]1O
apparent volume Vd/F (healthy Korean adults, fasted, plasma; oral, 0.3 mg single dose, separate tablets, with: co-administered drug 50 mg): 152 ± 38.1 L

CC[C@H](C)[C@H](NC(=O)[C@H](Cc1ccccc1)NC(=O)[C@H](CCC(=O)O)NC(=O)[C@H](CCCCNC(=O)COCCOCCNC(=O)COCCOCCNC(=O)CC[C@H](NC(=O)CCCCCCCCCCCCCCCCC(=O)O)C(=O)O)NC(=O)[C@H](C)NC(=O)[C@H](C)NC(=O)[C@H](CCC(N)=O)NC(=O)CNC(=O)[C@H](CCC(=O)O)NC(=O)[C@H](CC(C)C)NC(=O)[C@H](Cc1ccc(O)cc1)NC(=O)[C@H](CO)NC(=O)[C@H](CO)NC(=O)[C@@H](NC(=O)[C@H](CC(=O)O)NC(=O)[C@H](CO)NC(=O)[C@@H](NC(=O)[C@H](Cc1ccccc1)NC(=O)[C@@H](NC(=O)CNC(=O)[C@H](CCC(=O)O)NC(=O)C(C)(C)NC(=O)[C@@H](N)Cc1cnc[nH]1)[C@@H](C)O)[C@@H](C)O)C(C)C)C(=O)N[C@@H](C)C(=O)N[C@@H](Cc1c[nH]c2ccccc12)C(=O)N[C@@H](CC(C)C)C(=O)N[C@H](C(=O)N[C@@H](CCCNC(=N)N)C(=O)NCC(=O)N[C@@H](CCCNC(=N)N)C(=O)NCC(=O)O)C(C)C
apparent clearance (type 2 diabetes patients; subcutaneous, once weekly base model): 0.048 L/h

CCn1c(=O)c(-c2cc(NC(=O)Nc3ccccc3)c(F)cc2Br)cc2cnc(NC)cc21
apparent volume of distribution (LC-MS/MS; human, plasma; oral, 150 mg once daily): 177 L

COc1cc(Nc2ncc3c(n2)-c2ccc(Cl)cc2C(c2c(F)cccc2OC)=NC3)ccc1C(=O)O
apparent peripheral volume (V2/F) (population PK modelling; cancer patients, plasma; oral, dose not given): 27.4 L

O=C(c1cccnc1-c1ccncc1)N1CCC(O)(Cc2ccccc2)CC1
apparent central volume (population PK model; healthy adults; oral, dose not given): 65.5 L

N[C@@H](CC(=O)N1CCc2c(nc(C(F)(F)F)nc2C(F)(F)F)C1)CN1CC(F)(F)CCC1=O
apparent clearance CL/F (healthy Korean adults, fasted, plasma; oral, 50 mg single dose, fixed-dose combination tablet, with: enavogliflozin 0.3 mg): 606 ± 110 mL/min

CC1(C)CCC(CN2CCN(c3ccc(C(=O)NS(=O)(=O)c4ccc(NCC5CCOCC5)c([N+](=O)[O-])c4)c(Oc4cnc5[nH]ccc5c4)c3)CC2)=C(c2ccc(Cl)cc2)C1
apparent intercompartmental clearance (Q/F) (final population PK model; AML patients, plasma; oral): 93.1 L/day

COc1cc(N2CCC(N3CCN(C)CC3)CC2)ccc1Nc1ncc(Cl)c(Nc2ccccc2P(C)(C)=O)n1
apparent volume of distribution (healthy subjects; oral, dose not given, single dose): 5.4 to 8.3 L/kg

Excerpt of the above:
C=CC(=O)NC1CCN(c2ncc3ncnc(Nc4ccc(Oc5ccc6c(c5)ncn6C)c(C)c4)c3n2)CC1
apparent clearance CL/F (healthy male volunteers, plasma; oral, 60 mg, unlabelled tablet): 139 mL/min
